Measurements collected from several papers.
A part holds a random share of what one study measured.

Set 1 — method: protein binding microarray; form: double-stranded DNA, one strand shown; matrix: in vitro; concentration: not given; relative to: not given; reading: higher = stronger binding
Target: Histone acetyltransferase KAT6A, winged helix 2, GST fusion (KAT6A, Homo sapiens, UniProt Q92794, residues 85-181)
Notes: 8-mer, flanks averaged, mean of 2 arrays, mostly near background
Target sequence (chain): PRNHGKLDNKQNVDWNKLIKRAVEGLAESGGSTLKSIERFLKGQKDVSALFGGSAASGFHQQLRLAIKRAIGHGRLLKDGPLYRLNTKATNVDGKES
| Oligonucleotide | E-score |
| --- | --- |
| ACCGTTCG | 0.166 |
| AGACATCC | -0.00454 |
| ATCCGTAC | 0.0281 |
| CGTTCTTC | -0.00684 |
| CCGTCTAC | 0.00786 |

Set 2 — method: competition protein-binding microarray; form: double-stranded DNA, one strand shown; matrix: in vitro; concentration: 2 µM; with: Pho4 competitor, 0.05 µM; reading: higher = stronger binding; all sequences stand within: … GTCTTGATTCGCTTGACGCTGCTG
Target: Centromere-binding protein 1, full length, His-tagged (CBF1, Saccharomyces cerevisiae, UniProt P17106, residues 1-351)
Chain of UniProt P17106 (whole entry, looked up): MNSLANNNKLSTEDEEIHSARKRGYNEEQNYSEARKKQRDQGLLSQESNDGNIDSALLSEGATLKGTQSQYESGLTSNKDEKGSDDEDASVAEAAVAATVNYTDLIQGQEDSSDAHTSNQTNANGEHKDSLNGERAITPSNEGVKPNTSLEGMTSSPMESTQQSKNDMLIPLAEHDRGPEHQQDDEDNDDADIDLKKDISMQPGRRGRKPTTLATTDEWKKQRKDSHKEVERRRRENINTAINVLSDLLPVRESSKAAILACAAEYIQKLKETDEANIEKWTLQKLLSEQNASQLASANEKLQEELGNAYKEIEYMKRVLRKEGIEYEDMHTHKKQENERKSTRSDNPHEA
Notes: whole 60-bp probe, lowest competitor level
| Oligonucleotide | fluorescence intensity [a.u.] |
| --- | --- |
| CAGAAGCCAAATTGGCGCGTGAGTCTGAGCTGCCTT | 68.2 |
| CCATAGGTTCACATCCATGTGCACTGGTGCTGCGTT | 85.2 |
| ACCAACAATTAAAAGCACGTGATGGGTTCCAGGACT | 8450 |
| AAGTGCAGCCGATTGGGCGTGCGATTCACCCACTCA | 51.7 |
| CCGATGTATTTCTGCCTCGTGCAAAATCTTGCGCCA | 215 |

Set 3 — method: protein-binding microarray; form: double-stranded DNA, one strand shown; matrix: in vitro; concentration: not given; reading: higher = stronger binding
Target: Hepatocyte nuclear factor 3-beta, forkhead domain (FOXA2, Homo sapiens, UniProt Q9Y261, residues 142-269)
Notes: k-mer, scored over probes, only values ≥0.25
Construct (chain): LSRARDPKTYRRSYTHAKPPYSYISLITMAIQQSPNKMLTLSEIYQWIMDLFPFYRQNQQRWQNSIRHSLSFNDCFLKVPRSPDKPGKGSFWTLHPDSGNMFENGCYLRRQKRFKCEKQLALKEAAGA
| Oligonucleotide | E-score |
| --- | --- |
| ACTTAATA | 0.352 |
| AATATTAT | 0.313 |
| CAATATGA | 0.269 |
| CTAATTAG | 0.28 |
| ACACAAAC | 0.37 |
| ATTTAAAT | 0.313 |

Further values, each from its own experiment
| Molecule | target | assay | test system | setting | scale | endpoint | result |
| --- | --- | --- | --- | --- | --- | --- | --- |
| PhoQ, residues 284 288 289 292 302 303 GLASVI | PhoP, residues 12 14 15 18 19 TPWLV (Escherichia coli, UniProt P23836) | Sort-seq, measured: YFP reporter | E. coli | PhoQ-PhoP variant library, with: 10 µM Mg2+ | relative to: high Mg2+ state, higher = stronger signaling | fold induction | 12.2 |
